Results collected from several papers.
Numbered parts are unrelated; each lists some results of a single study.
Chain of UniProt Q9H4A3 (whole entry, looked up): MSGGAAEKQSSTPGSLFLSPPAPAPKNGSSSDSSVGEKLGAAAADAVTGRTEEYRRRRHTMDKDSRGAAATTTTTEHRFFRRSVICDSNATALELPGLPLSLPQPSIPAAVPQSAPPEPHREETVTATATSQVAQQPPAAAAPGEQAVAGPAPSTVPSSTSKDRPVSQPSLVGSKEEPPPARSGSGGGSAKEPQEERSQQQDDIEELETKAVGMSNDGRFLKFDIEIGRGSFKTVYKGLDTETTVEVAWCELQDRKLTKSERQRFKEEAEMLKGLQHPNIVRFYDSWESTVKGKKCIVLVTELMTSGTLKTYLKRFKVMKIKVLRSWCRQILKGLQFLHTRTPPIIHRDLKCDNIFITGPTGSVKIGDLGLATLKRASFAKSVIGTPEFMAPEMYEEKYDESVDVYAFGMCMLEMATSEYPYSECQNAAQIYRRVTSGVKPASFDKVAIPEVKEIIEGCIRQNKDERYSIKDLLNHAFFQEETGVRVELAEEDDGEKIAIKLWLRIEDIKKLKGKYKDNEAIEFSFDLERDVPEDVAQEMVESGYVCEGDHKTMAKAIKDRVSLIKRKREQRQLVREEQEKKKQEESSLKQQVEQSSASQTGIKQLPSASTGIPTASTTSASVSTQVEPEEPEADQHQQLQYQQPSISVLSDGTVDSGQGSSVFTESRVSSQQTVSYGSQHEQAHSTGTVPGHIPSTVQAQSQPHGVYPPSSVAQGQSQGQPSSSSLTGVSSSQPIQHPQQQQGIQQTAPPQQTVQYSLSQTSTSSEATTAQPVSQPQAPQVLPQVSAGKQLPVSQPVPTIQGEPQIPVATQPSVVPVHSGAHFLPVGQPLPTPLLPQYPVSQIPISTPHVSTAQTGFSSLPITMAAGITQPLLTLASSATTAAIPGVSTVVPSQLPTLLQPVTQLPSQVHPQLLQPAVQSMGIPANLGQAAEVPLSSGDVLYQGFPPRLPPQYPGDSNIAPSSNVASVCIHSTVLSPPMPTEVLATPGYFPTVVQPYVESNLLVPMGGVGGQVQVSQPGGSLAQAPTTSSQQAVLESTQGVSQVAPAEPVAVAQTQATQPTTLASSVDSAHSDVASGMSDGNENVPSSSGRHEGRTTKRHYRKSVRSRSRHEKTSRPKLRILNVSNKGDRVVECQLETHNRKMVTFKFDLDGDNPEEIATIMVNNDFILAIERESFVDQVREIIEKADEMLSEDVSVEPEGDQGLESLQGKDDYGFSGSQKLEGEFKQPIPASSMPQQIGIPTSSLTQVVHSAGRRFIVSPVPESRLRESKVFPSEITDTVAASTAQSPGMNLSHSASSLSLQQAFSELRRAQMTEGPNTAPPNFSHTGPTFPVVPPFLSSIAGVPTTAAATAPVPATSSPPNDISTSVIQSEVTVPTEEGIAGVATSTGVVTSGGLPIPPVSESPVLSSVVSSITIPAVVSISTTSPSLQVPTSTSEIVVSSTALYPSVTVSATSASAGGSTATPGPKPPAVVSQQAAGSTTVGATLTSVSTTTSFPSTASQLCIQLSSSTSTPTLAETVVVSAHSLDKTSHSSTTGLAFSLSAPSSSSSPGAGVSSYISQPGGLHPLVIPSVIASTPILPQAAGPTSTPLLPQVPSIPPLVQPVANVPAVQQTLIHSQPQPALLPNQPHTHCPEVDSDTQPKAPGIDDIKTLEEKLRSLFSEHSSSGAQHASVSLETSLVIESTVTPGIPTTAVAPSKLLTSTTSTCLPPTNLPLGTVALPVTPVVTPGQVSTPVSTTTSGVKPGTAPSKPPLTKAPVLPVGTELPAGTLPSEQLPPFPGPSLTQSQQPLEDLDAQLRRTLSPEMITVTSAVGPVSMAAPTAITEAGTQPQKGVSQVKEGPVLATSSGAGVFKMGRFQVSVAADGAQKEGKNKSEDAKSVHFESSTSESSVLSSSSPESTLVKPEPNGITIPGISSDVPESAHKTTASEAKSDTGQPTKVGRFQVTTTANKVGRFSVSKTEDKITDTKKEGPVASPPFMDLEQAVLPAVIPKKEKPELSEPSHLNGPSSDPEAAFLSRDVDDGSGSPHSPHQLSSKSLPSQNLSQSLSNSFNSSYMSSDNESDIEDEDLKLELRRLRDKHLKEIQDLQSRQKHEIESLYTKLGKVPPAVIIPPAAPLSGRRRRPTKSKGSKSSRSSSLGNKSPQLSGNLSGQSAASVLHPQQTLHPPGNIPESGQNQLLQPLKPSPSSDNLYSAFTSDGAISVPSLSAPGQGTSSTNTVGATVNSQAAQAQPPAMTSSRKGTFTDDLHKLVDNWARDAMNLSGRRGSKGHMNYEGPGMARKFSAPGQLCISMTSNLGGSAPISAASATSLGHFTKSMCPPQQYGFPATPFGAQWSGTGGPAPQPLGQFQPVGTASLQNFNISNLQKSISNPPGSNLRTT
Chain of UniProt Q9UHD2 (whole entry, looked up): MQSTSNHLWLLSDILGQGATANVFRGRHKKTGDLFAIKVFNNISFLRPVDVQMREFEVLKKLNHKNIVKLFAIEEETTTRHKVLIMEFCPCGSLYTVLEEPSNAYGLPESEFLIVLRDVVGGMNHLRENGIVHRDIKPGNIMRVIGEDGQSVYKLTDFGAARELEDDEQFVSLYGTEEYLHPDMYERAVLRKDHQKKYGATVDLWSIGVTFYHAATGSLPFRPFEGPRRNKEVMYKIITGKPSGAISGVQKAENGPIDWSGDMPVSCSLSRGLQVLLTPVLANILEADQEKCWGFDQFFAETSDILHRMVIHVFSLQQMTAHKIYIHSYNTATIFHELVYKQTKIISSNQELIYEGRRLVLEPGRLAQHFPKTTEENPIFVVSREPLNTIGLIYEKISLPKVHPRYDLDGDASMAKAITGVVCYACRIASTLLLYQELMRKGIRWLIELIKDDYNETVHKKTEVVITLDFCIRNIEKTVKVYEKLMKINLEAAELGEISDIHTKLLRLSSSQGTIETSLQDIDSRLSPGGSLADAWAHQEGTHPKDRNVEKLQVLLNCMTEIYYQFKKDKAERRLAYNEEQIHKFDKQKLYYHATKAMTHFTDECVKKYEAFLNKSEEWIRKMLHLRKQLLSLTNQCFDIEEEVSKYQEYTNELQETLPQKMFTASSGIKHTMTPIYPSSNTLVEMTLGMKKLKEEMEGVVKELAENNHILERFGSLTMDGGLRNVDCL
Chain of UniProt P42680 (whole entry, looked up): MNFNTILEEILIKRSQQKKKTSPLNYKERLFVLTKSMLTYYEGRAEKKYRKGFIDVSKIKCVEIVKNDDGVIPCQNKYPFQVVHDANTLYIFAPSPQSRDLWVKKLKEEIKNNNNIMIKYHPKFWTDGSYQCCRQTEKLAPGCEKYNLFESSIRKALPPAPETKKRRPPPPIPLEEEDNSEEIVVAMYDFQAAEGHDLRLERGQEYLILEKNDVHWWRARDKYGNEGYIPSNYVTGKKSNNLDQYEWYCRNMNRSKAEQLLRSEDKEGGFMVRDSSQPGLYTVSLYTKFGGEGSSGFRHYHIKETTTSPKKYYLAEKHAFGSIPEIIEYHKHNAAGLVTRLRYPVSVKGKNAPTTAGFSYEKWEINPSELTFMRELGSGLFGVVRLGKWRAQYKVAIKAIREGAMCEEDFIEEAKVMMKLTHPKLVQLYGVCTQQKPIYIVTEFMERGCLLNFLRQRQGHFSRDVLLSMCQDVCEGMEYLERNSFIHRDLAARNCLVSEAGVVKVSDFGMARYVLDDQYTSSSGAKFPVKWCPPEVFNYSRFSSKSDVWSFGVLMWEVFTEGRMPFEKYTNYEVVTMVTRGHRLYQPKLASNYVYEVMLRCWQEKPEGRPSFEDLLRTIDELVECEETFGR
Chain of UniProt Q86Y07 (whole entry, looked up): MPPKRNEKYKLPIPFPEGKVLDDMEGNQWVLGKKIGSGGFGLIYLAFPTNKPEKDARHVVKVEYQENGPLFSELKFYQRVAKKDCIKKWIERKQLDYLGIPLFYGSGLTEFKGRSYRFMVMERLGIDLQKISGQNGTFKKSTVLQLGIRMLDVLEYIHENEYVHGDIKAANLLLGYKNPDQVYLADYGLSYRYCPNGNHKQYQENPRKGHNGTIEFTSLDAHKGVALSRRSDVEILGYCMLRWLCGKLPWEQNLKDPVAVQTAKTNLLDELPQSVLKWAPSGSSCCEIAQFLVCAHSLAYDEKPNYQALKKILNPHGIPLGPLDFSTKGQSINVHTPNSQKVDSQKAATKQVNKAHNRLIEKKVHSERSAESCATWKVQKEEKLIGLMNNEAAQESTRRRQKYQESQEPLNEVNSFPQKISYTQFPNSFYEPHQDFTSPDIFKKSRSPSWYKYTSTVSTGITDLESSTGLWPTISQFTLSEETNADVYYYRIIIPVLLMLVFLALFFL
Chain of UniProt P49840 (whole entry, looked up): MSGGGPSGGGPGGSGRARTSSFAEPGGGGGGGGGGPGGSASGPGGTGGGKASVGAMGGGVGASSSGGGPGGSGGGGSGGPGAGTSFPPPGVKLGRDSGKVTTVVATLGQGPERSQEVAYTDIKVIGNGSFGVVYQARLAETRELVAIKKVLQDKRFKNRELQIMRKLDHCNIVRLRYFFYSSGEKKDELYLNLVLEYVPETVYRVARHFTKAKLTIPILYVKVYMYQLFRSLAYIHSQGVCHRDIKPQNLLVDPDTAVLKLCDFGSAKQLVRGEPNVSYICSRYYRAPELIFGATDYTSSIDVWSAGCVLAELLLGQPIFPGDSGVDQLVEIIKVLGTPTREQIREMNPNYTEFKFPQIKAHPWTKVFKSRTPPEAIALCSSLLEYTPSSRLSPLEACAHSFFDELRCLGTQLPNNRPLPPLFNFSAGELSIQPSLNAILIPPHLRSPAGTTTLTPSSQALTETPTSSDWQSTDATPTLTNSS

Study 1
Cell line: mouse MPNST tumor cells
Technique: high-content immunofluorescence imaging
Measured: nuclear SOX9
Concentration: 10 µM
Time: 12 h
Setting: mean of 2 replicates
Reference: DMSO control
Reading: higher = more nuclear SOX9
`C[C@H](NC(=O)CNC(=O)c1cccc(Cl)c1)c1ccccc1`: “nuclear SOX9 intensity” 98.1 % of DMSO.
Under “nuclear SOX9 intensity”, `CC(C(=O)O)c1ccc(N2Cc3ccccc3C2=O)cc1` (stereo not drawn) is recorded as 94.9 % of DMSO.
Under “nuclear SOX9 intensity”, `O=S(=O)(NC1CCC(c2cc(F)ccc2F)(S(=O)(=O)c2ccc(Cl)cc2)CC1)C(F)(F)F` (stereo not drawn) is recorded as 108 % of DMSO.
`Cc1cc(NC(=O)C(c2ccccc2)N2CCCc3ccccc32)no1` (stereo not drawn): “nuclear SOX9 intensity” 90.5 % of DMSO.
`FC(F)(F)c1ccc(CNc2ccc(Cc3c[nH]c4ncccc34)cn2)cc1`: “nuclear SOX9 intensity” 112 % of DMSO.
For `Clc1ccc(C(Cn2ccnc2)OCc2c(Cl)cccc2Cl)c(Cl)c1` (stereo not drawn), “nuclear SOX9 intensity” read 109 % of DMSO.

Study 2
Organism: Sarcocystis neurona
Effect on: parasite growth
Concentration: 10 µM
For `O=c1[nH]c(=O)n(C2CCCO2)cc1F` (stereo not drawn), the inhibition was 4.5%.
`CN1CCN(c2c(F)cc3c(=O)c(C(=O)O)cn4c3c2SCC4)CC1.Cl` gave an inhibition of -22.9%.
The inhibition of `CC1=C(/C=C/C(C)=C/C=C/C(C)=C/C(=O)O)C(C)(C)CCC1` is reported as -39.9%.
With `CCOc1cc(N)c(Cl)cc1C(=O)NCC1CN(Cc2ccc(F)cc2)CCO1` (stereo not drawn) the inhibition was 45.2%.
For `C#C[C@]1(O)CC[C@H]2[C@@H]3CCc4cc(OC)ccc4[C@H]3CC[C@@]21C`, the inhibition was -43.9%.
`COC(=O)Nc1nc2ccc(C(=O)c3ccccc3)cc2[nH]1` gave an inhibition of -76.1%.
The inhibition of `CC(C)c1ccc2c(c1)c(SC(C)(C)C)c(CC(C)(C)C(=O)O)n2Cc1ccc(Cl)cc1` is reported as 7.4%.
`CSc1ccc2c(c1)N(CCC1CCCCN1C)c1ccccc1S2` (stereo not drawn) gave an inhibition of 37.7%.

Study 3
Compound: CNCc1ccccc1-c1csc([C@H](C)Nc2nc(C)nc3cc(OC)c(OC)cc23)c1
Effect on: cell-free assay
Technique: competition with immobilised ligand
Concentration: 1 µM
It gave 95% for remaining binding (MAPK4 (Homo sapiens, UniProt P31152)).
It gave 75% for remaining binding (PIK3CA (Homo sapiens, UniProt P42336, E545K)).
For VRK2 (Homo sapiens, UniProt Q86Y07): remaining binding read 73%.
For WNK1 (Homo sapiens, UniProt Q9H4A3): remaining binding read 100%.
It gave 73% for remaining binding (PIK3CG (Homo sapiens, UniProt P48736)).
The remaining binding was 100% (TBK1 (Homo sapiens, UniProt Q9UHD2)).
For ZAP70 (Homo sapiens, UniProt P43403): remaining binding read 100%.
CDK11A (Homo sapiens, UniProt Q9UQ88) — remaining binding: 100%.
It gave 98% for remaining binding (MET (Homo sapiens, UniProt P08581, Y1235D)).
For TEC (Homo sapiens, UniProt P42680): remaining binding read 100%.
GSK3A (Homo sapiens, UniProt P49840) — remaining binding: 100%.
It gave 94% for remaining binding (Tyrosine-protein kinase ABL1, phosphorylated (ABL1, Homo sapiens, UniProt P00519, Y253F)).
Ribosomal protein S6 kinase alpha-2, N-terminal kinase domain (RPS6KA2, Homo sapiens, UniProt Q15349) — remaining binding: 100%.

Study 4
Sample: 1,9-decadiene/PBS
pH: 7.4
For `CC(C)C[C@@H]1NC(=O)[C@H](CC(C)C)NC(=O)[C@@H](CC(C)C)NC(=O)[C@H](CC(C)C)NC(=O)[C@@H](CCC(=O)N2CCCC2)NC(=O)[C@H](Cc2cscn2)NC(=O)[C@H](C)NC1=O`, the logD was -1.44.
With `CC(C)C[C@@H]1NC(=O)[C@H](CC(C)C)NC(=O)[C@H](CC(C)C)NC(=O)[C@H](C(C)C)NC(=O)[C@@H](Cc2cscn2)NC(=O)[C@H](CCC(=O)N2CCCC2)NC(=O)[C@H](C)NC1=O` the logD was -2.28.
With `CC(C)C[C@@H]1NC(=O)[C@H](CC(C)C)NC(=O)[C@@H](C(C)C)NC(=O)[C@H](CC(C)C)NC(=O)[C@@H](Cc2cscn2)NC(=O)[C@H](Cc2cscn2)NC(=O)[C@H](CCC(=O)N2CCCC2)NC1=O` the logD was -1.64.
`CC(C)C[C@@H]1NC(=O)[C@H](Cc2cscn2)NC(=O)[C@H](CCC(=O)N2CCCC2)NC(=O)[C@H](CC(C)C)NC(=O)[C@@H](CCC(=O)N2CCCC2)NC(=O)[C@H](CC(C)C)NC(=O)[C@@H](CC(C)C)NC1=O` gave a logD of -1.43.
For `CC(C)C[C@@H]1NC(=O)[C@H](CC(C)C)NC(=O)[C@@H](CC(C)C)NC(=O)[C@H](C(C)C)NC(=O)[C@H](C(C)C)NC(=O)[C@H](C)NC(=O)[C@H](C)NC1=O`, the logD was -1.08.
The logD of `CC(C)C[C@@H]1NC(=O)[C@H](Cc2cscn2)NC(=O)[C@H](CC(C)C)NC(=O)[C@H](C(C)C)NC(=O)[C@H](CC(C)C)NC(=O)[C@@H](CC(C)C)NC(=O)[C@H](CC(C)C)NC1=O` is reported as 1.14.
With `CC(C)C[C@@H]1NC(=O)[C@H](C)NC(=O)[C@H](CC(C)C)NC(=O)[C@@H](CCC(=O)N2CCCC2)NC(=O)[C@H](CC(C)C)NC(=O)[C@@H](CC(C)C)NC(=O)[C@H](CC(C)C)NC1=O` the logD was -0.636.
With `CC(C)C[C@@H]1NC(=O)[C@@H](C)NC(=O)[C@H](Cc2cscn2)NC(=O)[C@H](C)NC(=O)[C@H](C(C)C)NC(=O)[C@H](CC(C)C)NC(=O)[C@@H](CC(C)C)NC1=O` the logD was -1.86.
`CC(C)C[C@@H]1NC(=O)[C@@H](C)NC(=O)[C@H](C)NC(=O)[C@@H](C(C)C)NC(=O)[C@H](C(C)C)NC(=O)[C@H](CC(C)C)NC(=O)[C@@H](CC(C)C)NC1=O` gave a logD of -1.4.

A few entries again (study 2):
For `C#C[C@]1(O)CC[C@H]2[C@@H]3CCc4cc(OC)ccc4[C@H]3CC[C@@]21C`, the inhibition was -43.9%.
`COC(=O)Nc1nc2ccc(C(=O)c3ccccc3)cc2[nH]1` gave an inhibition of -76.1%.
The inhibition of `CC(C)c1ccc2c(c1)c(SC(C)(C)C)c(CC(C)(C)C(=O)O)n2Cc1ccc(Cl)cc1` is reported as 7.4%.
`CSc1ccc2c(c1)N(CCC1CCCCN1C)c1ccccc1S2` (stereo not drawn) gave an inhibition of 37.7%.
